Assay results from different studies.
Each line is one published result; not all experiments were run side by side. Numbers after ± are the reported error.
Target: Cholinesterase (BCHE, Equus caballus, UniProt P81908)
Chain of UniProt P81908 (whole entry, looked up): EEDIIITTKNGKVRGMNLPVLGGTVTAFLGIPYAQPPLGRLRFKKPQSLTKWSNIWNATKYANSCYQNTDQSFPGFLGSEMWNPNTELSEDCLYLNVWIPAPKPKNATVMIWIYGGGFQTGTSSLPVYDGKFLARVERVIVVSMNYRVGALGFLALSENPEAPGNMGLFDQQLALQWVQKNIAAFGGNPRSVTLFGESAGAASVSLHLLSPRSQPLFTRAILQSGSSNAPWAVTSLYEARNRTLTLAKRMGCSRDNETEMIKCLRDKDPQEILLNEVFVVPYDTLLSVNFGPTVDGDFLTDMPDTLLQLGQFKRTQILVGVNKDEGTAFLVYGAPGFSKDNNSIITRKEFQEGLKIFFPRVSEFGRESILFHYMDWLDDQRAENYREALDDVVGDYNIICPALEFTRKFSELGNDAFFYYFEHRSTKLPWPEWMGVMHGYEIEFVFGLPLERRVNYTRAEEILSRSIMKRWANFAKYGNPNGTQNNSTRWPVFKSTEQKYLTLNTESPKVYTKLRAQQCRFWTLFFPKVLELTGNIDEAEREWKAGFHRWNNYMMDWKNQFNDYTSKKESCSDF
Action: inhibitor

Structure (SMILES) | effect on | technique | medium | tested at | together with | quantity | result
COC(=O)C1=CO[C@@H](O)[C@@H]2C(Cn3cc(C(O)(c4ccccc4)c4ccccc4)nn3)=CC[C@H]12 | enzyme activity | Ellman Lineweaver-Burk |  |  | butyrylthiocholine iodide | Ki | 100 µM
O=C(/C=C/c1ccccc1)c1cc2ccccc2oc1=O | enzyme activity |  |  | 10 µM |  | remaining activity | 66.1%
Cc1ccc(Nc2c3c(nc4ccccc24)CCCC3)cc1 | enzyme activity |  |  | 50 µM |  | inhibition | -1.24%
O=C(/C=C/c1ccc(F)cc1)c1cc2ccccc2oc1=O | enzyme activity |  |  | 10 µM |  | remaining activity | 75%
COc1cc2c(cc1OC)-c1cc3ccc(OC)c(OC)c3c[n+]1CC2 | enzyme activity | Ellman |  | up to 0.1 µg/mL |  | IC50 | inactive
COC(=O)C1=CO[C@@H](OC(C)=O)[C@@H]2C(Cn3cc(CCCN4C(=O)c5ccccc5C4=O)nn3)=CC[C@H]12 |  |  | horse serum BuChE | 10000 µM |  | inhibition | 71.55 ± 0.22%
COc1ccc(Nc2c3c(nc4ccccc24)CCC(C)C3)nc1 (stereo not drawn) | enzyme activity |  |  | 100 µM |  | inhibition | -55.1%
O=C(/C=C/c1ccccc1Br)c1cc2ccccc2oc1=O | enzyme activity |  |  | 10 µM |  | remaining activity | 62.1%
Clc1ccc2nc3c(c(Nc4ccc5ccccc5n4)c2c1)CCCC3 | enzyme activity |  |  | 100 µM |  | inhibition | -56%
COC(=O)C1=CO[C@@H](OC(C)=O)[C@@H]2C(Cn3cc(CN4C(=O)c5ccccc5C4=O)nn3)=CC[C@H]12 |  |  | horse serum BuChE | 10000 µM |  | inhibition | 78.64 ± 0.1%
COc1ccc2c(c1OC)C(=O)c1nccc3cc4c(c-2c13)OCO4 | enzyme activity | Ellman |  | up to 0.1 µg/mL |  | IC50 | inactive
COC(=O)C1=CO[C@@H](OC(C)=O)[C@@H]2C(Cn3cc(CCBr)nn3)=CC[C@H]12 |  |  | horse serum BuChE | 10000 µM |  | inhibition | 97.34 ± 0.18%
COc1ccc2c(c1OC)CN1CCc3cc(O)c(O)cc3[C@@H]1C2 | enzyme activity | Ellman |  | up to 0.1 µg/mL |  | IC50 | inactive
Clc1ccc(Nc2c3c(nc4ccccc24)CCCC3)cc1 | enzyme activity |  |  | 50 µM |  | inhibition | -34.1%
CCCCCCCCOCc1cn(CC2=CC[C@@H]3C(C(=O)OC)=CO[C@@H](O)[C@H]23)nn1 |  |  | horse serum BuChE | 10000 µM |  | inhibition | 42.57 ± 0.16%
FC(F)(F)c1cccc(Nc2c3c(nc4ccccc24)CCCC3)c1 | enzyme activity |  |  | 50 µM |  | inhibition | -132%
COC(=O)C1=CO[C@@H](O)[C@@H]2C(Cn3cc(C4(O)CCCC4)nn3)=CC[C@H]12 |  |  | horse serum BuChE | 10000 µM |  | inhibition | 27.26 ± 0.27%
O=C(/C=C/c1ccc(Cl)cc1)c1cc2ccccc2oc1=O | enzyme activity |  |  | 10 µM |  | remaining activity | 69.9%
